Experimental data gathered from unrelated publications.
Numbered parts are unrelated; each lists some results of a single study.

Sample 1
Target: RNA binding protein fox-1 homolog 2, RRM domain, GST-SBP tag (RBFOX2, Homo sapiens, UniProt O43251-10, residues 100-194)
Technique: RNA Bind-n-Seq
Molecule type: RNA
Medium: in vitro
Concentration: 365 nM
Notes: natural RNA segment, single round, ends assumed
Relative to: no-protein control
Direction: higher = stronger binding
Target sequence (chain): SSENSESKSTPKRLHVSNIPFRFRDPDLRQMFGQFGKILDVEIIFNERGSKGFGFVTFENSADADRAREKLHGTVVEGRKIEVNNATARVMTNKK
Strand	RBNS enrichment (R)
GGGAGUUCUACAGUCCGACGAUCGUUACUGCAGCAUCUGGGCUGCCAGCCACAGGGAAGGGCCAAGCCCCAUGUAGCCCCAGUCAUCCUGCCCAGCCCUGCCUCCUGGCCAUGCCGGGAGGGGUCGGAUCCUCUGGAAUUCUCGGGUGCCAA	0.91
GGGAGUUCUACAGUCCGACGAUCCCAGUGGGCUGUGUUGACUGCUGCUCCCCACCCCUACCGAUGGUCCCAGGAAGCAGGGAGAGUUGGGGAAGGCAAGAUUGGAAAGACAGGAAGACCAAGGCCUCGGCAGAUGGAAUUCUCGGGUGCCAA	0.385
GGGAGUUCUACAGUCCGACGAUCAACAGAGAUAUAUUUUGUACAAAAUGAACUGUUAAGUUGCCUUUGGCUAACAUCCAUAUGUAUAUAUCUUAUUUAUAAAUAAAAAUUGUAAAUGUCAGUUUCGGUAUCCCUGGAAUUCUCGGGUGCCAA	0.581
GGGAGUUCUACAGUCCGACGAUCACCCAAGCUGGUGGGCAGGGGGCUGGAAGGCACCAGGCCUCAGGAGGAGCCCCAUAGUCCCGCCUGCAGCCUGUAACCAUCGGCUGGGCCCUGCAAGGCCCACACUCACGUGGAAUUCUCGGGUGCCAA	0.393
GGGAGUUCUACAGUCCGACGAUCCCACGGCCCACCCUGGUCAGGCUGCCUCCUUAAUCGAGAAAACUACCUGGUGAUGCAAUCUUUUUUUUUUUUAAUUUAAUUUAAUUUUAAAAUAAAUGCUGCAUUGGUAAUGGAAUUCUCGGGUGCCAA	0.644
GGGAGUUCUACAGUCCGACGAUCCUGAUUUGAUAGAUUUUUCUUUUUAAAUAAAACUUCACAGCCUGCACAGUUGUUACGCAUACUACAUGGUAUGUUACAAUUAGGGUUUCCUUGCCUCUUUACAGUACACUUGGAAUUCUCGGGUGCCAA	0.54
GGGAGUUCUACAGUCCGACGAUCUUCACUUUCUCUAGCCCAUCAUUACCUGUGAACUGCAGUGGGGCAGUCAUGGCAAAUAGAAUUGGGCUGGGGUUUCUCCUUCUUUUCAGUUCAUUGUUUGCCCUGCUAGGUGGAAUUCUCGGGUGCCAA	1.29
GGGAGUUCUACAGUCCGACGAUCUAUGAUGAAGGGUUUGGGGUGUUUUUAUUUGUAGCAGAGGUAAGAAUAUGUAUUCAUAUAAUCUGCCUACUUUUGAGUUCUCAUAUUAACAUUUAGAUAACAUAUGAAGUUGGAAUUCUCGGGUGCCAA	0.456
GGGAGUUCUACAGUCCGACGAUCGGCUCCUUUUAGUUUGUUGUCUUGCCCUACUGUGUAGCUCACUGACUGAGAAUAAAGAAUACAGCAAGGCUGCCUUUGUCUUUGUUUUUCCUGGCUGUGUGUAGCUGUGGUGGAAUUCUCGGGUGCCAA	1.59
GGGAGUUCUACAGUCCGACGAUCCGAGAAAGAGAAGGAUGUUGUGCCGGAAGGACCCGUGCAGGAAGCUGAAACUGAGCAUCUUGCACAGGGCUCCGAGACUGUACAGGCUACCCCAGAGAGCCUUGAAGUUCUGGAAUUCUCGGGUGCCAA	0.287
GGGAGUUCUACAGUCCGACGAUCUCAUGGGAAGUGGGGGCACAGGGUGGGUUUCACACUGCAAGACUUGAAAGGGGGACAGGUAUACCCCUUAGCCCUUAGCUGUGUUAUUGGGAGAAAUGAUACACUUGGUCUGGAAUUCUCGGGUGCCAA	1.14
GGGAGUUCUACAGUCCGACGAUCAAGCCAGCCUCACCAACAACACCAUGUCUGCUCAGCAGUAUGCAGAUAUGUGGGGAUAGUCUCUCAGGCUGGCAUGGGCCCCUUUCUGCUAUGCGCCCUAUUAGGAAGAGUGGAAUUCUCGGGUGCCAA	0.901

Sample 2
Target: Fragile X messenger ribonucleoprotein 1, C-terminal low-complexity region (Fmr1, Mus musculus, UniProt P35922)
Technique: RNA Bind-n-Seq
Molecule type: RNA
Medium: in vitro
Concentration: 200 nM
Notes: whole 134-nt RNA, ends assumed
With: 150 mM KCl
Relative to: input library
Direction: higher = stronger binding
Strand	log2 enrichment
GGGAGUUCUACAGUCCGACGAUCCCUGUGCUACACAUCGUAUGUACCGAAUCGGGCCCCCCCGGCCCCCCCGGGCCCCCCCGGAAAGUAUUAUGUUACGCCGUUCGGAUCUGCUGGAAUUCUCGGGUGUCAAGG	-0.0046
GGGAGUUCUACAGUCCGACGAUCACCAUGCAGGUGGGCAUCUUUGGGAAGUGGGGCAAGGGGGGGAUAGGGAGGGGGGUAACACUUUGGGAACAGGGGGUCCCAGGUCGUUUCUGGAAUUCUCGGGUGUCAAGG	0.399
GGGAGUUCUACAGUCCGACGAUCCUCAAGUCCUGUGCUACACAUCGUAUGUACCGAAUCGGGUGGGUGGGUUUGGGAAAGUAUUAUGUUACGCCGUUCGGAUCUGCACUUCCAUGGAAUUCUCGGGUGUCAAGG	1
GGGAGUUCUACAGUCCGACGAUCAAGUCCUGUGCUACACAUCGUAUGUACCGAAUCGGGGAAAAAGGGGUGGGGAGGGGAAAGUAUUAUGUUACGCCGUUCGGAUCUGCACUUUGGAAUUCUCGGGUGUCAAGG	0.955
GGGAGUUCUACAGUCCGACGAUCUGGGAGGUGGAUUUUGUUUAUUUUUUUAGCUCAUUUCCAGGGGUGGGAAUUUUUUUUAAAUAUGUGUCAUGAAUAAAGUUGUUUUUGAAAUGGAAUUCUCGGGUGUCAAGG	0.223
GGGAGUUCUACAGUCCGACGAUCCCUCAAGUCCUGUGCUACACAUCGUAUGUACCGAAUCGGUGGAGGAAAAAGGAAAGUAUUAUGUUACGCCGUUCGGAUCUGCACUUCCAGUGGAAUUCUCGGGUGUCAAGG	0.106
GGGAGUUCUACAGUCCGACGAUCUGGGAGGUGGAUUUUGUUUACUUUUUUAGCUCAUUUCCAGGGGUGGGAAUUUUUUUUUAAUAUGUGUCAUGAAUAAAGUUGUUUUUGAAAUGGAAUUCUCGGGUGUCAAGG	0.415
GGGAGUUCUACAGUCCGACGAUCCCUGUGCUACACAUCGUAUGUACCGAAUCGGGUUUUUGGGUUUUUUUGGGUUUUUUUGGGAAAGUAUUAUGUUACGCCGUUCGGAUCUGCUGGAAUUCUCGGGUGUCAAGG	-0.448
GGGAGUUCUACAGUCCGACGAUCUGUGCUACACAUCGUAUGUACCGAAUCGGGGAAAAAAAGGGGUUUUUGGGGUUUUUUUGGGGAAAGUAUUAUGUUACGCCGUUCGGAUCUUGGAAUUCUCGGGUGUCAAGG	0.349
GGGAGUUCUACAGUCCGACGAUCUAACUUUAGAGGAGGAUCUGGUGGAUAUGGCAGUGGACGUGGAUUUGGGGAUGGCUAUAAUGGGUAUGGAGGAGGACCUGGAGGUGGCAAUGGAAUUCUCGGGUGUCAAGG	0.375

Sample 3
Target: Sal-like protein 4, full length isoform B (SALL4, Homo sapiens, UniProt Q9UJQ4-2, residues 1-616)
Technique: universal PBM
Molecule type: double-stranded DNA, one strand shown
Medium: in vitro
Concentration: not given
Notes: 8-mer, flanks averaged, mean of replicates
Direction: higher = stronger binding
Residues (chain): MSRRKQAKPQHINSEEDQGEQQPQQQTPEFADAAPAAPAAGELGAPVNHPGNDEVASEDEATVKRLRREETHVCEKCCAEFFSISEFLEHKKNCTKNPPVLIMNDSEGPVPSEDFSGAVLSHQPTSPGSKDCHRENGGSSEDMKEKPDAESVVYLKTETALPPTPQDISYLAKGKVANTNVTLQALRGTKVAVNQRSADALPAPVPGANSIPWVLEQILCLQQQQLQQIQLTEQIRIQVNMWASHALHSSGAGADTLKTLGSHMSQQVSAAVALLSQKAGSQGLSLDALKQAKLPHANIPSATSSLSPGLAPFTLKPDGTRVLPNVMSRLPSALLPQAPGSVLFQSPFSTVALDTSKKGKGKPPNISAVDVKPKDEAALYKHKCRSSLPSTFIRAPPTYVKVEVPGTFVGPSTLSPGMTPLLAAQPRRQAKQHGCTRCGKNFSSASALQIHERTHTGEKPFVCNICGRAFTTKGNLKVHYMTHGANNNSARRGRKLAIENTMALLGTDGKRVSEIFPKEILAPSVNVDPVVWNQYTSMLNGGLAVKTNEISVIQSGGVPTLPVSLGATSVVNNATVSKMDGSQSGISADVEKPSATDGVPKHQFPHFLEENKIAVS
Strand	E-score
ATTCTAAG	0.0819
ATTACGTA	0.314
GTGCACTA	-0.0275
CGTGTTTA	0.174
CCCTTCCG	-0.228
ATGCTATG	0.254
GGAGTAAA	0.245
ACGAGATC	0.0303
CGCACGGC	-0.357
ACAGCCCT	-0.247
CAATCACC	-0.103
GCCAAACA	-0.0679
GAATCGCA	-0.148
GGTATTCA	0.136
GAGGGAAA	0.0783
CGGTGCAG	-0.24
AGCTACAT	0.0693
GGAACGTA	-0.00536
TCCAGCCA	-0.218
AGAGTGGA	-0.0668
ATTAGGTG	0.0997
GGACACCC	-0.291
ACTCCCTG	-0.109
CAAGACAA	0.142
GTTTCACA	0.129

Sample 4
Target: Histone acetyltransferase KAT6A, winged helix 2, GST fusion (KAT6A, Homo sapiens, UniProt Q92794, residues 85-181)
Technique: protein binding microarray
Molecule type: double-stranded DNA, one strand shown
Medium: in vitro
Concentration: not given
Notes: 8-mer, flanks averaged, mean of 2 arrays, mostly near background
Relative to: not given
Direction: higher = stronger binding
Target sequence (chain): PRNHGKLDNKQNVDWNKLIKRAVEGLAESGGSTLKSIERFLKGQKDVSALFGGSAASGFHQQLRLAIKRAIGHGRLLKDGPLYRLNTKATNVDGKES
Strand	E-score
CAGATTCA	-0.0642
GACTGCTA	-0.119
CGGGGTGC	0.0827
ACCAGCGA	0.0188
GATCATCC	-0.0486
AACCGCAC	0.103
CGAGCTCA	0.068
AGAGCGTA	-0.139
CGTGTTTA	-0.00239
GGGCACAA	0.0287
ACGACGAT	-0.021
CATCGCGC	0.127
CCCTATGC	-0.0313
CCATCCGA	-0.0095
AAATCGTA	-0.202
CCATTCAA	0.0612
ACGTCGAA	-0.00781
ATATCGCC	0.0884
GTGCGGGA	0.0909
CATCGCGA	0.0614

For quick reference, copied from above (sample 4):
Strand	E-score
CCATCCGA	-0.0095
AAATCGTA	-0.202
CCATTCAA	0.0612
ACGTCGAA	-0.00781
ATATCGCC	0.0884
GTGCGGGA	0.0909
CATCGCGA	0.0614
